Assay results from different studies.
Protocols differ between the studies behind these lines. Several values in a cell are separate wells, animals, samples, runs or records. ± marks the error that the study gave.

| Structure (SMILES) | test system | conditions | how to read | body weight |
| --- | --- | --- | --- | --- |
| COc1cccc2c1C(=O)c1c(O)c3c(c(O)c1C2=O)C[C@@](O)(C(=O)CO)C[C@@H]3O[C@H]1C[C@H](N)[C@H](O)[C@H](C)O1 | BALB/c mice, 4T1 tumour model | 2 mg/kg, day 0 |  | 19 ± 0.28 g |
| C=CC(=O)N1C[C@@H](n2nc(C#Cc3c(F)cc4c(ncn4C4CC4)c3F)c(C(N)=O)c2NC)C[C@@H]1COC | mice, CC-LP-1 xenograft | 5 and 15 mg/kg, 25 days |  | not toxic |
| CCN1CCN(C(=O)c2ccc(-n3nc(-c4cccnc4)c4c3-c3sc(NC(C)=O)nc3CC4)cc2)CC1 | NSG mice | dose not given, day 2 |  | 19.7 g and 19.8 g and 16.1 g and 18.8 g |
| Cc1cnc(Nc2ccc(OCCN3CCCC3)cc2)nc1Nc1cccc(S(=O)(=O)NC(C)(C)C)c1 | BALB/c mice, rhEPO-induced polycythemia | 120 mg/kg, day 0 |  | 18 g and 19.4 g and 17.8 g and 19.2 g and 18.4 g and 18.3 g |
| O=C1NC(=O)/C(=C/c2ccc3ncnc(N4CCC(F)(F)CC4)c3n2)S1 | NSG mice | dose not given, day 4 |  | 16 g and 18.7 g and 15.6 g and 16.1 g |
| CCc1c(C)nc(-c2ccc(Cl)s2)nc1Nc1ccc(CC(=O)O)cc1 | mice, chronic ethanol plus binge | intraperitoneal, 0.3 mg/kg daily, ethanol diet 4 weeks, dosed last two | reference: vehicle | no effect |
| CCc1cnc(NC(=O)c2cc(S(=O)(=O)N3CCOCC3)ccc2N(C)C2CCCC2)s1 | mice bearing H1975-OR xenografts | dose not given |  | not toxic |
| COc1cc(N2CCC(N3CCN(C)CC3)CC2)ccc1Nc1ncc(Cl)c(Nc2ccccc2P(C)(C)=O)n1 | nude mice, NCI-H3122 xenograft | intraperitoneal, 10 mg/kg every other day, day 11 |  | 23.3 g and 23.4 g and 24.4 g and 21.6 g and 24.6 g |
| C1=C/COCc2cc(ccc2OCCN2CCCC2)Nc2nccc(n2)-c2cccc(c2)COC/1 | BALB/c mice, rhEPO-induced polycythemia | 120 mg/kg, day 2 |  | 20.1 g and 19 g and 18.2 g and 18.7 g and 18.9 g |
| COc1ccc(CNc2nc(-c3ccc(C(=O)O)cc3)nc3sc4ccccc4c23)cc1Cl | NSG mice | dose not given, day 5 |  | 18.4 g and 20.2 g and 20.3 g and 21.8 g |

Excerpt of the above:
| Structure (SMILES) | test system | conditions | how to read | body weight |
| --- | --- | --- | --- | --- |
| COc1cccc2c1C(=O)c1c(O)c3c(c(O)c1C2=O)C[C@@](O)(C(=O)CO)C[C@@H]3O[C@H]1C[C@H](N)[C@H](O)[C@H](C)O1 | BALB/c mice, 4T1 tumour model | 2 mg/kg, day 0 |  | 19 ± 0.28 g |
